Results of several laboratories.
Every numbered part comes from another study and shows a few of its results, in no order.

Study 1 — technique: RNA Bind-n-Seq; form: RNA; matrix: in vitro; tested at: 365 nM; relative to: no-protein control; reading: higher = stronger binding
Target: RNA binding protein fox-1 homolog 2, RRM domain, GST-SBP tag (RBFOX2, Homo sapiens, UniProt O43251-10, residues 100-194)
Notes: natural RNA segment, single round, ends assumed
All sequences stand within: GGGAGUUCUACAGUCCGACGAUC … UGGAAUUCUCGGGUGCCAA
Residues (chain): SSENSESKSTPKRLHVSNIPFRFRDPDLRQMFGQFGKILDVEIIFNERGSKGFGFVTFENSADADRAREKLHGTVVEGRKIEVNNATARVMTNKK
Sequence	RBNS enrichment (R)
GUGGCGCCUCCCGCAGCUUCCCUUCUCUCUCCAGUGCUGCCCGCUGUGUCUAGCAGCCUCUAGGAUCUUGUCAGAGCUGCACCUCUCUGUGAACUGGCCAUUCCUUUCGG	0.375
CCUAGCUGGCCCCAGGCUGGGGUCCUAUGCAAAGCAGGAUCCCACUAAUGGGAUUCAGGCAGAAGUGUCUACCUUGAUAGGUGGGGUGGGACCACAUCCUCCACUGUGGC	0.286
CUGGUUUUAUUUGUCUCUGGUCCACAAGAGUGUUUUGGCAACUGCCUGGAGCUUGCAUGUUGGGACAAAUCAGGACAAGUGCCAGCAGCCUGAAUAUUUCCAGUGCCUAC	4.85
GAUUCUAGGAGUCCCUUGAAAGCCUGGAUCAGGUCAAAGUGCCACACAGGUGCCACCUGUCCCAGAUUGUGGCUUGGCAUGGAGCUGCCCACGUCUGGCUGCUGAUGAAC	0.674
GCGCAUAAAAGCCUGCUGGCUCGGGGCGCCUGCCUCCCUGCUCCUCUGUCCUCAAACAGUGAACCCAGGCUGCAGCCUGAGACCUGGACUCUAGCCCCCAUCCAUCCUUC	0.194
UGGGGUCAAGGGGCCUGGACCAGUAGAAGCCAUCAACCUACUGAAGUUGUGUGGAGGGAUGGAAAGUGGGUCAGUGGAGAAGGGAUUCAGAAAAUGACACAUUCUUCCCC	0.694
UAGCGCAGAAUGUUUUCUUGCAGAGCCUAGAGUACUUUGUUAAUGUUCUUCCGUUUGCUGCAACGAUGUCCUUGGAAAAAGAUAGAAUGGAAAUUAUUUUUCCAAAAUAA	5.18
AAGGUCCUGUGCUGAUGGAGGCAUGACAGUCCUCUCGCAGCCUGAGGAGGGUUUUGUUCUGUCUGUGUCGCCUCUCCGCCGCACAGAAUCGAUGUGUGUGAUAUUCAGAG	1.46
CAAGUGGGUGUGGAUAAUGCCAUGGCCAGCAGGGGGCACUGUUGAGGCGGGUGCCUUUCCACCUUAAGUUGCUUAUAGUAUUUAAGAUGCUAAAUGUUUUAAUCAAGAGA	0.355
AAUUGUUUAUUCCCAAAUUGAAAUACACAAGAAAAUAUAAUUUAAGUCUGAAAUUUAACGCCUACUUCCUAUAACACAUUUUAGGAUGCUUUCUGAUGAUUUAAACUUUG	0.547
CAUAUUUUUUUCCUUACAUAAACAUCAGCUUAGGCAGUAUAAAAAAUAGGACUUGUUUUUUGUUUUUGUUUUGUUGCACUGAAGUAUGACAAAUAGUGUUAUUGGAAGGG	0.412
UGAUGAGGCCCCAGCUGGGGCCUGUUGUCUGGGACCCUCCCUCUCCUGAGAGGGGAGGCCUGGUGGCUUAGCCUGGGCAGGUCGUGUCUCCUCCUGACCCCAGUGGCUGC	0.291

Study 2 — technique: protein binding microarray; form: double-stranded DNA, one strand shown; matrix: in vitro; tested at: not given; relative to: not given; reading: higher = stronger binding
Target: Histone acetyltransferase KAT6A, winged helix 1, GST fusion (KAT6A, Homo sapiens, UniProt Q92794, residues 1-85)
Notes: 8-mer, flanks averaged, mean of 2 arrays, mostly near background
Construct (chain): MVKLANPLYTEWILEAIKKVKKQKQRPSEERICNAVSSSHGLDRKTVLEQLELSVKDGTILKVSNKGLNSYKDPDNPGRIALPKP
Sequence	E-score
ATACCCCG	0.205
GAGCTAGC	-0.00195
CTCTTCTA	-0.0349
CTAGTTAA	-0.1
GCGATGGA	0.172
CCCTGGTA	-0.153
GCTGGAAC	0.0148
CAAGGCAC	-0.273
TATGAATA	-0.142
CCGCGAAA	0.34
GGGTTCGA	-0.0834
CCCTTCGG	0.0905
ACTTGGGA	-0.257
AATATTTA	-0.00294
AACTTGGT	-0.0815
TCGTTTAA	-0.251
ACCCTCAC	-0.23
AATGGCAA	-0.186
ACGGTACT	0.243

Study 3 — technique: RNA Bind-n-Seq; form: RNA; matrix: in vitro; tested at: 200 nM; notes: whole 134-nt RNA, ends assumed; together with: 150 mM KCl; relative to: input library; reading: higher = stronger binding
Target: Fragile X messenger ribonucleoprotein 1, C-terminal low-complexity region (Fmr1, Mus musculus, UniProt P35922)
All sequences stand within: GGGAGUUCUACAGUCCGACGAUC … UGGAAUUCUCGGGUGUCAAGG
Sequence	log2 enrichment
CUGUGCUACACAUCGUAUGUACCGAAUCGGGGCCCCCCCGGGCCCCCCCGGGCCCCCCCGGGAAAGUAUUAUGUUACGCCGUUCGGAUCU	-1.25
AGUCCUGUGCUACACAUCGUAUGUACCGAAUCGGGUGGGUUUUUUUGGGAAAAAGGGAAAGUAUUAUGUUACGCCGUUCGGAUCUGCACU	0.221
UCUUCCGUGACAUUUCAUUUGGGGAACAACUUUUCUCUUUACAGGCCCGAGUGACUAAGGGAUGUACCAUUGUUAAGCCUUUCAACCUGU	0.928
UGGGCAAUGUGUCGGCUGCAUGCACGAGCCAGGAACUGCGCAGCCUCUUCGAGCGCCGCGGACGCGUCAUCGAGUGUGACGUGGUGAAAG	-1.15
CACAGACAACACGCACCCACACAGACACAGAGGGAAGGGGUUGGGAUGGGGACAGGUUGCACAGCAGGGCGGGGUAGGACCCCAGCCCCU	1.11
CCUCAAGUCCUGUGCUACACAUCGUAUGUACCGAAUCGGGAGGAGGGAGGGGAAAGUAUUAUGUUACGCCGUUCGGAUCUGCACUUCCAG	1.17
CCUCAAGUCCUGUGCUACACAUCGUAUGUACCGAAUCGGGGAGGAGGGAGGGAAAGUAUUAUGUUACGCCGUUCGGAUCUGCACUUCCAG	1.15
CAAGUCCUGUGCUACACAUCGUAUGUACCGAAUCGGAAAGGGGAAAGGAAAGGGGAAAGUAUUAUGUUACGCCGUUCGGAUCUGCACUUC	0.137
CAAGUCCUGUGCUACACAUCGUAUGUACCGAAUCGGUUUUUGGUUUUUGGUUUGGAAAGUAUUAUGUUACGCCGUUCGGAUCUGCACUUC	-0.72
ACCAUGCAGGUGGGCAUCUUUGGGAAGUGGGGCAAGGGGGGGAUAGGGAGGGGGGUAACACUUUGGGAACAGGUGUUCCCAGGUCGUUUC	0.802
UCAAGUCCUGUGCUACACAUCGUAUGUACCGAAUCGGGGAAGGGAAGGGAAGGGAAAGUAUUAUGUUACGCCGUUCGGAUCUGCACUUCC	0.889
CACCGACAACACGCACCCACACAGACACAGAGGGAAGGGGUUGGGAUGGGGACAGGGUGCACAGCAGGGCGGGGUAGGACCCCAGCCCCU	1.29
UGGCCCUGGUGGCAUGCGGGGAGGAAGAGGUGGCCUCAUGGAUCGUGGUGGUCCCGGUGGAAUGUUCGGAGGUGGCCGUGGUGGAGACAG	0.174
UUCUCUCUCUCCCUUUGCAGCCGCUGUACAACCAGCCCUCCGACACCCGGCAGUAUCAUGAGAACAUCAAAAUGUGAGUGCUCGCGGGCA	0.336

Study 4 — technique: protein-binding microarray; form: double-stranded DNA, one strand shown; matrix: in vitro; tested at: 2540 nM top; notes: 60-bp whole probe; together with: salmon DNA 0.4 mg/ml; relative to: random background probes; reading: higher = stronger binding; all sequences stand within: GCCTAGCAC … GTCTTGATTCGCTTGACGCTGCTG
Target: Interferon regulatory factor 3, full length, phosphomimetic (IRF3, Homo sapiens, UniProt Q14653, residues 1-427, S386D/S396D/S398D/S402D/T404D/S405D)
Chain of UniProt Q14653 (whole entry, unmodified, looked up): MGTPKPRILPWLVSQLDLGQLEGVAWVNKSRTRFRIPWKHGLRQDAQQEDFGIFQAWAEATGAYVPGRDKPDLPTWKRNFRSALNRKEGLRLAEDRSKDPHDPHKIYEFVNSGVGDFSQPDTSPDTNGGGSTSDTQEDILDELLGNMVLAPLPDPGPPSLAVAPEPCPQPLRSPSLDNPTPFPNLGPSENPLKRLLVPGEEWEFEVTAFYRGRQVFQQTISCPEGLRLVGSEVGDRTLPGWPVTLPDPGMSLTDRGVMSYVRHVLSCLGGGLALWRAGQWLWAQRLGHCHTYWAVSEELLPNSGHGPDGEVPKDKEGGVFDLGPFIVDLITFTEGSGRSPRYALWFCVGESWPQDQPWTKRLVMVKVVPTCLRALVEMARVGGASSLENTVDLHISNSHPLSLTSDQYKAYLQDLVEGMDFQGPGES
Sequence	fitted relative affinity [z-score]
TCACCTTGGGCTCTAGGACTGTGCTAG	-0.42
TCAGATTTCGGGACTGGATTAGTGCTA	1.61
TTAGGACTGCTTTTCCTTCAGTGCTAG	0.393
TTAGGATTCGGGTTTCGGTTAGTGCTA	3.75
TTAGTACTGCTTATCCTTTAGTGCTAG	0.213
TTAGATATCAGTATCCATTAGTGCTAG	2.56
GACGGTGTCGGTATCGGGACGTGCTAG	3.09
TCAGTCCTCACTTCCTTACTGTGCTAG	0.639
AAAAATGATTGGTTGAACATGTGCTAG	-0.0893
GACGATTTCAATATCGAGACGTGCTAG	1.7
TCAACAATTTCAGATTCCACTGTGCTA	1.69
GTAGGTCTCGGACTGGGTTAGTGCTAG	-0.321
TCATAGCTTCCTTTCGCACTGTGCTAG	1.23
GACGGTCACCTTCTCCTGACGTGCTAG	2
AACTAAAGAGACCACAAAAAGTGCTAG	0.172
GACGGACTGGGGCTGGGGACGTGCTAG	-0.904
TTTGGTATCGGGTATCGGTTAGTGCTA	2.28

For quick reference, copied from above (study 2):
Sequence	E-score
AATATTTA	-0.00294
ACGGTACT	0.243
CTCTTCTA	-0.0349
CAAGGCAC	-0.273
